Measurements gathered from unrelated publications.
Compare with care: the assays were run in different laboratories.

Compound | assay | test system | conditions | endpoint | result
O=C(Nc1nc2cccc(-c3ccc(CN4CCS(=O)(=O)CC4)cc3)n2n1)C1CC1 | refers to: anaemia | rheumatoid arthritis patients | oral, 200 mg once daily, 4 weeks, any relatedness | patients with adverse event | 0%
Cc1cc(NC2CCN(C(=O)OC3CCN(C(=O)/C=C/CN(C)C)C3)CC2)n2ncc(C(C)C)c2n1 (centres unmarked) |  | patients with advanced solid tumours | dose not given, QD arm, grade 3 or higher | patients with Dyspepsia | 0%
Cc1cc(-c2nnc(N)nc2-c2ccc(F)cc2)cc(Cl)n1 | refers to: Rash | IO-naive colorectal cancer patients | oral, dose not given, treatment-related, grade ≥3 | patients with immune-mediated AE | 0%
COc1cc(Nc2ncc3c(n2)-c2ccc(Cl)cc2C(c2c(F)cccc2OC)=NC3)ccc1C(=O)O | refers to: Hypertension, all grades | cancer patients, phase 1/2 | oral, dose not given, added: pembrolizumab | patients with adverse event | 13%
COc1ccc([C@@H](O)c2cc(-c3ncnc4cc(N5CCOCC5)ccc34)c(F)cc2Cl)nn1 | refers to: Anemia | locally advanced rectal cancer patients | dose not given, all dose groups, added: capecitabine plus radiotherapy | patients with drug-related AE | 26%
CCOc1c([C@H](C)n2nc(C)c3c(N)ncnc32)cc(Cl)c(F)c1[C@@H]1CNC(=O)C1 | refers to: QTcF ≤450 ms | previously treated B-cell malignancy | oral, 45 mg once daily, overall population | patients | 100%
CNC(=O)c1ccc(-c2cnc3ncc(Cc4ccc5ncccc5c4)n3n2)cc1F | refers to: Pruritus | cancer patients | oral, dose not given, dose escalation, grade 3-4 | patients with adverse event | 3%
C[C@@H](Nc1cc(F)cc(F)c1)c1cc(C(=O)N(C)C)cc2c(=O)cc(N3CCOCC3)oc12 | refers to: Rash | advanced solid tumour patients | oral, dose not given, dose expansion | patients discontinuing for AE | 0%

For quick reference, copied from above:
Compound | assay | test system | conditions | endpoint | result
CNC(=O)c1ccc(-c2cnc3ncc(Cc4ccc5ncccc5c4)n3n2)cc1F | refers to: Pruritus | cancer patients | oral, dose not given, dose escalation, grade 3-4 | patients with adverse event | 3%
